Measured values gathered from unrelated publications.
Protocols differ between the studies behind these lines. Several values in a cell are separate wells, animals, samples, runs or records.
UniProt P06873, sequence (whole entry, looked up): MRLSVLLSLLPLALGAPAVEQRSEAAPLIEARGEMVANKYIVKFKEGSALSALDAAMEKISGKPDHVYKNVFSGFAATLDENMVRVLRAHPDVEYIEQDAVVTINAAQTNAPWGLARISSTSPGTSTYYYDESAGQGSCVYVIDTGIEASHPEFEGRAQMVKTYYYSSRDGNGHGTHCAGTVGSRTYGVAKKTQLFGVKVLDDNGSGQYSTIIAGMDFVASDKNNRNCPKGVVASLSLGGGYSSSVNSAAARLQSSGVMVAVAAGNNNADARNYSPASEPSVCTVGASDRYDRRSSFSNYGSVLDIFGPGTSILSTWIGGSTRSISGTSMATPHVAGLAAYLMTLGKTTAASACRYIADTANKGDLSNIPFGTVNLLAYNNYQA
UniProt Q15759, sequence (whole entry, looked up): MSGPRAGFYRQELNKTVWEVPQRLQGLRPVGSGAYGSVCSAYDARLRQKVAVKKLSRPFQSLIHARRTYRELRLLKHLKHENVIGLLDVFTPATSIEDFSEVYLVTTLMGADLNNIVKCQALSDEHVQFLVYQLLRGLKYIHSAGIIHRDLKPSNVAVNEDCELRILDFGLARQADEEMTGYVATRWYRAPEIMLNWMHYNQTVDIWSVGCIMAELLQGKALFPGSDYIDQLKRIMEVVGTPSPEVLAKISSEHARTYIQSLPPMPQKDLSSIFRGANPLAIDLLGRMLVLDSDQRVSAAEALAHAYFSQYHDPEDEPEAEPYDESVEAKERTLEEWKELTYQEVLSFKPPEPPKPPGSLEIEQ
UniProt P08173, sequence (whole entry, looked up): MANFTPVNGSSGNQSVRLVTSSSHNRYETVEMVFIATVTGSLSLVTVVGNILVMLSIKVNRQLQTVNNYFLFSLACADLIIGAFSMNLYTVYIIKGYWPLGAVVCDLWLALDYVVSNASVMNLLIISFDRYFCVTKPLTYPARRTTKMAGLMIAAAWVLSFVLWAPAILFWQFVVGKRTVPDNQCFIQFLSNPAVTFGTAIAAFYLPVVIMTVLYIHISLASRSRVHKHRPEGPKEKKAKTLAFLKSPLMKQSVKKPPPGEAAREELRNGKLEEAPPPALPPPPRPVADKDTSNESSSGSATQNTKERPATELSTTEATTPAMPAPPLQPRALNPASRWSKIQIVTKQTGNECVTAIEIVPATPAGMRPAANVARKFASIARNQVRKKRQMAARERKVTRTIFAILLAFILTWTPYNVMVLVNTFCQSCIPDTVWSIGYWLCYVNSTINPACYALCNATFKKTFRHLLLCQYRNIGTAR

`CC1(C)[C@H](C(=O)OCc2cccc(Oc3ccccc3)c2)[C@@H]1C=C(Cl)Cl`: “relative enzyme contribution” 4.37% (human microsomal CES2; IVIVE from expressed enzymes; human, 5 years old, expressed human CES2; 0.1 µM; relative to: total hepatic CLint in vivo).
`Cc1cc(C(=O)NC(C)(C)COc2cccc3c2C(N)=NS(=O)(=O)N3)cc(C)n1` has a revertant ratio of 1.2 (Salmonella typhimurium; Ames test, initial; TA98; 150 µg/plate, together with: rat liver S9; relative to: solvent control).
Under “median protein ratio”, `O=C(c1ccc(Cl)cc1)N1CCN2C(=O)N(OC(=O)N3CCOc4ccccc43)C(=O)C2C1` (stereo not drawn) is recorded as 0.96 (Kallikrein-6 (Homo sapiens, UniProt Q92876); MS-based ABPP; SW-620 conditioned medium; 10 µM, 1 h, 37 °C; relative to: compound over DMSO, lower = more inhibition).
For `COc1cc(Nc2ncc(F)c(Nc3ccc4c(n3)NC(=O)C(C)(C)O4)n2)cc(OC)c1OC`, the IC50 was over 10 µM (CHRM4 (Homo sapiens, UniProt P08173)).
`CC(=O)N1CCC(C(=O)N2CCN3C(=O)c4cc(-c5ccccc5)ccc4NC(=O)C3C2)CC1` (stereo not drawn) — result for “fold increase in revertants”: 0.7 (Salmonella typhimurium; TA1537; 158 µg/plate; relative to: vehicle).
`CCCC[C@H](NC(C)=O)C(=O)N[C@@H](CO)C(=O)N[C@H](C(=O)N1CCC[C@H]1C(=O)N[C@@H](C)C(=O)N[C@@H](CCCNC(=N)N)C(=O)N[C@@H](CCCNC(=N)N)C(=O)N[C@@H](CCCNC(=N)N)C(=O)N[C@@H](CC(C)C)C(=O)N[C@@H](CCCC)C(=O)N[C@@H](CCCNC(=N)N)C(=O)N[C@@H](CC(=O)O)C(=O)N[C@@H](Cc1ccccc1)C(=O)N[C@@H](CCCCN)C(=O)N[C@@H](CCCNC(=N)N)C(=O)N[C@@H](CC(C)C)C(=O)N[C@@H](CCC(N)=O)C(N)=O)[C@@H](C)O` — result for “remaining intact peptide”: 42.7% and 50% (Proteinase K (PROK, Engyodontium album, UniProt P06873); proteolytic stability, LC-MS; 25 µM, 20.5 min, pH 7.4).
`CO[C@H]1C[C@@H]2CC[C@@H](C)[C@@](O)(O2)C(=O)C(=O)N2CCCC[C@H]2C(=O)O[C@H]([C@H](C)C[C@@H]2CC[C@@H](OC(=O)NCCOCCOCCOCCOCCOCCOCCOCCOCCC(=O)N3CCc4cc(Cn5nc(-c6ccc7oc(N)nc7c6)c6c(N)ncnc65)ccc4C3)[C@H](OC)C2)C[C@@H](O)[C@H](C)/C=C(\C)[C@@H](O)[C@@H](OC)C(=O)[C@H](C)C[C@H](C)/C=C/C=C/C=C/1C` gave an anaemia incidence of 25% (patients with advanced solid tumours; intravenous, 8 mg weekly, grade 3 or higher).
`COc1cccc(-c2n[nH]c(SCc3ccccn3)n2)c1OC` — result for “revertant colonies per plate”: 14 (Salmonella typhimurium; Ames test, plate incorporation; TA1537; 0.50 mg/plate, with rat liver S9).
`COc1cc2c(Oc3ccc4[nH]c(C)cc4c3F)ccnc2cc1OCC1(N)CC1`: “grade 3 Nausea” 0% (paediatric recurrent refractory sarcoma; 12 mg).
`Nc1ncnc2c([C@@H]3N[C@H](CO)[C@@H](O)[C@H]3O)c[nH]c12` gave a cell number of 2250 and 3260 (HeLa; 200 µM).
For `O=c1ccc2ccccc2o1`, “probability of response” read 0% (HepG2; item: cell count; concentration not given, 24 h, heat and osmotic shock panel).
With `C=CCc1ccccc1OCC(O)CNC(C)C` (stereo not drawn) the IC50 was 2 µM (Plasmodium falciparum; W2).
`OCc1ncc2n1-c1ccc(Cl)cc1C(c1ccccc1F)=NC2` gave an AUC(0-t) of 142 ng·h/mL (CYP3A4; substrate; human, plasma; oral, 2 mg midazolam, day 14, cocktail with binimetinib and encorafenib).
`COc1cc2c(cc1C(F)(F)F)N(C(=O)Nc1cc(F)cc(-c3cccnc3)c1)CC2` has an IC50 of 1.58 µM (Plasmodium falciparum; GB4).
`C[C@H]1CN(c2n[nH]c3nc(N[C@H]4CC[C@H](NS(=O)(=O)CCC(F)(F)F)CC4)ncc23)CCO1` gave a relative binding of 0.21 (MAPK11 (Homo sapiens, UniProt Q15759); Kinobeads binding, Kinobeads competition pull-down; HEK293, K562 and placenta lysate; 20 µM; relative to: vehicle).

Some of these lines once more:
`COc1cccc(-c2n[nH]c(SCc3ccccn3)n2)c1OC` — result for “revertant colonies per plate”: 14 (Salmonella typhimurium; Ames test, plate incorporation; TA1537; 0.50 mg/plate, with rat liver S9).
